Experimental data from different studies.
± marks the error that the study gave.
DRD3: D(3) dopamine receptor (DRD3, Homo sapiens, UniProt P35462)
Chain of UniProt P35462 (whole entry, looked up): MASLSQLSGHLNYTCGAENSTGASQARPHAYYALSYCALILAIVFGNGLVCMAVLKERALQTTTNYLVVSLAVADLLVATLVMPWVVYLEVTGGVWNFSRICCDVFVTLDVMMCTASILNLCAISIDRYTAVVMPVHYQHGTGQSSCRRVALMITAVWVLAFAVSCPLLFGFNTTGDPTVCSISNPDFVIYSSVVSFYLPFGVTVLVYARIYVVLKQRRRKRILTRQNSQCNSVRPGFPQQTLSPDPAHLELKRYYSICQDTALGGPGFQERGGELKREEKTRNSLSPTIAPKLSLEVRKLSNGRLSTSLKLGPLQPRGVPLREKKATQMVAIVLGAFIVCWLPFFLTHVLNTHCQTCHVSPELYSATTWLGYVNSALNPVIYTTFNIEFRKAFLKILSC
Mapk1: Mitogen-activated protein kinase 1 (Mapk1, Rattus norvegicus, UniProt P63086)
Chain of UniProt P63086 (whole entry, looked up): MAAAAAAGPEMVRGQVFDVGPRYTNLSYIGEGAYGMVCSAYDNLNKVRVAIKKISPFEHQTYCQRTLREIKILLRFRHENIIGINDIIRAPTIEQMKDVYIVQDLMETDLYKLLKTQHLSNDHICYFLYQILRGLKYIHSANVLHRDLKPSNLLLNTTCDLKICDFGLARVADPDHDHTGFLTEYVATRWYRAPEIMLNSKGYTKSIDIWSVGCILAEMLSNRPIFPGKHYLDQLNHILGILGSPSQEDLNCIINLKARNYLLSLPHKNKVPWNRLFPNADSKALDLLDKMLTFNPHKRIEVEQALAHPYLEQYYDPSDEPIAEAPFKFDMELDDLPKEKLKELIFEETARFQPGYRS
CA1: Carbonic anhydrase 1 (CA1, Homo sapiens, UniProt P00915)
Chain of UniProt P00915 (whole entry, looked up): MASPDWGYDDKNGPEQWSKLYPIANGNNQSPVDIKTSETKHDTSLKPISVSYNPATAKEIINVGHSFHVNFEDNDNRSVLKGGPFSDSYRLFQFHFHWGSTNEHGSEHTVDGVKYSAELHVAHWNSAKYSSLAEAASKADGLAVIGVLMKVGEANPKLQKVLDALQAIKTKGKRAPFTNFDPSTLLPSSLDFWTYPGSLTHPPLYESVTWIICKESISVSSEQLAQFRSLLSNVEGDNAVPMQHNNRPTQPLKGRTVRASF
Chain of UniProt O00748 (whole entry, looked up): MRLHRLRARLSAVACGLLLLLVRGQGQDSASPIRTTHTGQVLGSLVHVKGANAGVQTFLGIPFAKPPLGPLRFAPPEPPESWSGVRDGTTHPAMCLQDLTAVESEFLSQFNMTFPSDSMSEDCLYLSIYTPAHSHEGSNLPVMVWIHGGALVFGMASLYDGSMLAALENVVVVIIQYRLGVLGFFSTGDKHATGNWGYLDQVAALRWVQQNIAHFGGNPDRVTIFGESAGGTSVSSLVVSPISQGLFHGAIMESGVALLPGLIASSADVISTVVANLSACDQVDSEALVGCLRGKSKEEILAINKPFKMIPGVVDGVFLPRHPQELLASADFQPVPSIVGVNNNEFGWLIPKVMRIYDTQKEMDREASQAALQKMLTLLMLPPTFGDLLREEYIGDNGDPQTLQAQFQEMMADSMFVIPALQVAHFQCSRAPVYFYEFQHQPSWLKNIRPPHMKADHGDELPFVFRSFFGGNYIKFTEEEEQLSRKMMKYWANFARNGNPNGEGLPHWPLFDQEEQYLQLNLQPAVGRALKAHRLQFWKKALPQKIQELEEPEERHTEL
Chain of UniProt Q9UKE5 (whole entry, looked up): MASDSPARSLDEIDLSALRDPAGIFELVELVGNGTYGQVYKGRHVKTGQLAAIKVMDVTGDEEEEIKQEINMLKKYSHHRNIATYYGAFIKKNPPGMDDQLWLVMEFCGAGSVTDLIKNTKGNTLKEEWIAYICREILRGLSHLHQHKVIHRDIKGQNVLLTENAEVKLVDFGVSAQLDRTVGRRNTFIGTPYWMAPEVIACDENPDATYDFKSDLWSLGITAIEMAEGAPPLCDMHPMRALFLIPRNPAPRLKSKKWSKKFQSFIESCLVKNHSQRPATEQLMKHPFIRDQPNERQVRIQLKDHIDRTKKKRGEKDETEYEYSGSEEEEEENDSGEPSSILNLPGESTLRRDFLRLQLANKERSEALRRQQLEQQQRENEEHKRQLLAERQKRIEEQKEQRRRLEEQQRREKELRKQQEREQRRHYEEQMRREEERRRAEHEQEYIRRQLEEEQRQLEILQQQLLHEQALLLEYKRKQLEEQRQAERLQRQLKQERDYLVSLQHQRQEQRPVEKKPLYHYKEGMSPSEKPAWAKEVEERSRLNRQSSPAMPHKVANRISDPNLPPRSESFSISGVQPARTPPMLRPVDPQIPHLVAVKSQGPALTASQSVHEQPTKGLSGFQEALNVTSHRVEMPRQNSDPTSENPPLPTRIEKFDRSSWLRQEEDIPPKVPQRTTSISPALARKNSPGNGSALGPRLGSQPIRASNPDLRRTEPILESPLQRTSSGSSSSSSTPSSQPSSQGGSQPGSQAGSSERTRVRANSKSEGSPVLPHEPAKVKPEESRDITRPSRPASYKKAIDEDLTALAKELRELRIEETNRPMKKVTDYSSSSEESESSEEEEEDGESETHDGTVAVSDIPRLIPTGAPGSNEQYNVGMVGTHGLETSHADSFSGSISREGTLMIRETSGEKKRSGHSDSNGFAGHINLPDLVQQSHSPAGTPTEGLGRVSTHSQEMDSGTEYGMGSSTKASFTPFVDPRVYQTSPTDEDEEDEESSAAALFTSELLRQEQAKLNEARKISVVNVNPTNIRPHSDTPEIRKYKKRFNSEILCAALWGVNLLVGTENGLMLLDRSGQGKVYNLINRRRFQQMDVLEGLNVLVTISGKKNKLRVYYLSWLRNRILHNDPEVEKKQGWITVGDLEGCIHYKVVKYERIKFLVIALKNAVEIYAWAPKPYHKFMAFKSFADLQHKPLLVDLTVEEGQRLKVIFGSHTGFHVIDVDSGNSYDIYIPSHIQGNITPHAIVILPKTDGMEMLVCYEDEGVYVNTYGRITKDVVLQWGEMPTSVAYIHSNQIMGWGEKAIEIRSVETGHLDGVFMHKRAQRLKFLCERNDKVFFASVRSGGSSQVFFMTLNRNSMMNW
Chain of UniProt P49720 (whole entry, looked up): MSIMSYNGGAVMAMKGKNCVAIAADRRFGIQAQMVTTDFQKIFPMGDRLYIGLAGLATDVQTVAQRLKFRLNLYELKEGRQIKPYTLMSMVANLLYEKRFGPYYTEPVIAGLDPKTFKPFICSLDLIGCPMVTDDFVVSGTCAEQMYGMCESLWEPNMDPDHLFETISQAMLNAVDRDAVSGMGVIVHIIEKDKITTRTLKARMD
Chain of UniProt P10275 (whole entry, looked up): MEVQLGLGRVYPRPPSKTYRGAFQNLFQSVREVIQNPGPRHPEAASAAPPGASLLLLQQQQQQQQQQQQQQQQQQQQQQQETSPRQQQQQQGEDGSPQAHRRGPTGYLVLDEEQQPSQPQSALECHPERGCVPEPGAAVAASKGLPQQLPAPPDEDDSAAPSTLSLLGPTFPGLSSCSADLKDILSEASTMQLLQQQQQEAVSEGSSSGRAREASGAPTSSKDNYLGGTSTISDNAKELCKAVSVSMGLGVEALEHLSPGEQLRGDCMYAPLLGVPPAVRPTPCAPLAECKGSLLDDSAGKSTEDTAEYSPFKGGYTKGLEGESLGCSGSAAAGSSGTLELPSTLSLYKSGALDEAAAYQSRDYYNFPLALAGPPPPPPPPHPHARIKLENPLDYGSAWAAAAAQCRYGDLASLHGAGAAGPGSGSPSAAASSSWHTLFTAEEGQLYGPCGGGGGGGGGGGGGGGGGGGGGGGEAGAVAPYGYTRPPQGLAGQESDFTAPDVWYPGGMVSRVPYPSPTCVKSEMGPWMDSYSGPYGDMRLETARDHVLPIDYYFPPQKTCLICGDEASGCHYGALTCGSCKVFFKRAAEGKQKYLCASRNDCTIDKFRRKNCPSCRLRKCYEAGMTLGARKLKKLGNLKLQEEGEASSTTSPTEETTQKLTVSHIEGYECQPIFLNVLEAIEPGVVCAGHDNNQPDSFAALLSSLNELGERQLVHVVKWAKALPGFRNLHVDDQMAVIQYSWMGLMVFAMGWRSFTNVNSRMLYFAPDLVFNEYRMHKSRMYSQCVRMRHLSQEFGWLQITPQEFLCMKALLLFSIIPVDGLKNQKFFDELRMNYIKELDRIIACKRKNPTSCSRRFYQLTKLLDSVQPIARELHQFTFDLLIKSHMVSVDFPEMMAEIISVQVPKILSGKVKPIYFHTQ
Chain of UniProt Q9HB89 (whole entry, looked up): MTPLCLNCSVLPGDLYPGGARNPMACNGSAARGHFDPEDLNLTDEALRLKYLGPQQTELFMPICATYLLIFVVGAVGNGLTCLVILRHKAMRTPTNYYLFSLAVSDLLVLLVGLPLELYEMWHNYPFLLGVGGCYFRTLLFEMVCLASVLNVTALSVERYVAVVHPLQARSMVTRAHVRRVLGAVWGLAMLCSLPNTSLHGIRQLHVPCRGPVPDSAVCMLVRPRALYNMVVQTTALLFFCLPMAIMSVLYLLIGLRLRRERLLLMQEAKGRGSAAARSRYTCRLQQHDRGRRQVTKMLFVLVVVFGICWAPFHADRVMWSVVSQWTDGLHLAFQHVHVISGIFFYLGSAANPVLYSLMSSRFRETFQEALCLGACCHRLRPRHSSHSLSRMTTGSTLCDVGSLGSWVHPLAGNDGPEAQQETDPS
Chain of UniProt P00157 (whole entry, looked up): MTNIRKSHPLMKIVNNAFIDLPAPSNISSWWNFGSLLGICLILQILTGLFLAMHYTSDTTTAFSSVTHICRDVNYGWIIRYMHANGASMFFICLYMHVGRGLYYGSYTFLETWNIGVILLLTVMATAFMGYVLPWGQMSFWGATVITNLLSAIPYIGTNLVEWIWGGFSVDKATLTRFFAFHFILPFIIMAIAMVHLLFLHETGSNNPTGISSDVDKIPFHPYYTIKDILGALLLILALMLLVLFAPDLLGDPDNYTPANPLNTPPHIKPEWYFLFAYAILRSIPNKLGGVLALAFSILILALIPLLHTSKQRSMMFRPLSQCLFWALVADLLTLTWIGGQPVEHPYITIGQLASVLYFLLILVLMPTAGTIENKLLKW

| SMILES | target or system | assay | test system | conditions | quantity | value |
| --- | --- | --- | --- | --- | --- | --- |
| Cc1[nH]c(C)c(S(=O)(=O)Nc2ccccc2)c1C(=O)N1CCCC1 | DRD3 | β-arrestin recruitment, antagonist, PathHunter | – | added: dopamine EC80 | IC50 | > 100 µM |
| C[C@]12CC[C@H]3[C@@H](CC[C@H]4C[C@H](O)CC[C@@]43C)[C@@H]1CC(=O)C2 | Androgen receptor (AR, Homo sapiens, UniProt P10275) | nuclear translocation, antagonist | – | – | IC50 | 0.12 µM |
| CSCC[C@H](NC(=O)[C@H](CC(C)C)NC(=O)[C@H](C)NC(=O)[C@@H](N)Cc1ccc(O)cc1)C(=O)N[C@@H](CCC(=O)O)C(=O)N[C@@H](CCCNC(=N)N)C(=O)N[C@@H](CCCNC(=N)N)C(=O)N[C@@H](CCCNC(=N)N)C(=O)N[C@@H](CC(C)C)C(=O)N[C@@H](CC(N)=O)C(=O)N[C@@H](CCC(N)=O)C(=O)N[C@@H](CC(C)C)C(=O)N[C@@H](CC(C)C)C(=O)N[C@@H](CC(C)C)C(=O)N1CCC[C@H]1C(=O)N[C@@H](CC(C)C)C(=O)O | Mapk1 | enzyme activity, inhibitor, fluorescence | – | pH 7.4 | IC50 | 45 µM |
| O=S(=O)(N/N=C/c1ccc(OS(=O)(=O)c2ccc(Cl)cc2)cc1)c1cc(Cl)ccc1Cl | CA1 | enzyme activity, inhibitor, absorbance | – | – | IC50 | 0.0228 µM |
| CN1CCCCC1C(=O)NC(Cc1ccc(-c2ccccc2)cc1)B(O)O (stereo not drawn) | Proteasome subunit beta type-10 / Proteasome subunit beta type-3 (Homo sapiens, UniProt P40306+P49720) | β2i activity, inhibitor | – | immunoproteasome, added: Ac-KQL-AMC | IC50 | > 10 µM |
| CC(C)C[C@H](NC(=O)[C@@H](NC(=O)[C@H](CC(C)C)NC(=O)[C@H](CO)NC(=O)[C@@H](NC(=O)[C@H](CC(N)=O)NC(=O)[C@H](CO)NC(=O)CNC(=O)[C@H](CCCNC(=N)N)NC(=O)[C@H](CCCNC(=N)N)NC(=O)[C@H](CCC(=O)O)NC(=O)[C@H](CCC(N)=O)NC(=O)[C@H](CC(C)C)NC(=O)CNC(=O)[C@H](C)NC(=O)[C@@H](N)Cc1ccc(O)cc1)C(C)C)[C@@H](C)O)C(=O)O | Mapk1 | enzyme activity, inhibitor, fluorescence | – | pH 7.4 | IC50 | 35.1 µM |
| CC(C)C[C@H](NC(=O)[C@H](CC(=O)O)NC(=O)[C@@H](N)CC(N)=O)C(=O)N1CCC[C@H]1C(=O)N[C@@H](Cc1ccccc1)C(=O)N[C@H](CCC(=O)O)C(=O)N[C@@H](Cc1ccccc1)C(N)=O | Transcriptional regulator PlcR (Bacillus thuringiensis, UniProt A0ACM8Q0N2) | reporter gene, inhibitor, lacZ reporter | 407 Cry− | 1 h, phase, late exponential, added at | IC50 | 1.26 ± 0.174 µM |
| CC[C@H](C)[C@H](NC(=O)[C@H](CC(C)C)NC(=O)[C@@H]1CCCN1C(=O)[C@H](CCC(=O)O)NC(=O)[C@@H]1CCCN1C(=O)[C@H](CCCNC(=N)N)NC(=O)[C@@H]1CCCN1C(=O)[C@H](CCCNC(=N)N)NC(=O)[C@H](CCC(N)=O)NC(=O)[C@H](CCCCN)NC(=O)[C@@H]1CCCN1C(=O)[C@H](C)NC(=O)[C@@H](N)Cc1ccc(O)cc1)C(=O)N[C@H](C(=O)N1CCC[C@H]1C(=O)N[C@H](C(=O)O)[C@@H](C)O)[C@@H](C)CC | Mapk1 | enzyme activity, inhibitor, fluorescence | – | pH 7.4 | IC50 | 10.2 µM |
| COC1c2cc(C(C)C)c(O)c(O)c2C23CCCC(C)(C)C2C1OC3=O (stereo not drawn) | CA1 | enzyme activity, inhibitor | – | – | IC50 | 0.00481 µM |
| COc1ccccc1-n1c(SCC(=O)Nc2ccccc2F)nc2cccnc21 | PFF0160c (Plasmodium falciparum, UniProt Q08210, E182D) | enzyme activity, inhibitor, absorbance | – | – | IC50 | 9.97 µM |
| CC[C@H](C)[C@H](NC(=O)[C@H](CC(C)C)NC(=O)[C@H](C)NC(=O)[C@H](CCC(=O)O)NC(=O)[C@H](C)NC(=O)[C@H](CCCNC(=N)N)NC(=O)[C@@H]1CCCN1C(=O)[C@H](CCCNC(=N)N)NC(=O)[C@H](CCC(N)=O)NC(=O)[C@H](CCCCN)NC(=O)[C@@H]1CCCN1C(=O)[C@H](C)NC(=O)[C@@H](N)Cc1ccc(O)cc1)C(=O)N[C@H](C(=O)N1CCC[C@H]1C(=O)N[C@H](C(=O)O)[C@@H](C)O)[C@@H](C)CC | Mapk1 | enzyme activity, inhibitor, fluorescence | – | pH 7.4 | IC50 | 196 µM |
| COc1ccccc1-n1ccnc1SCC(=O)Nc1cc(C(F)(F)F)ccc1Cl | PFF0160c (Plasmodium falciparum, UniProt Q08210) | enzyme activity, inhibitor, absorbance | – | – | IC50 | < 0.01 µM |
| O=c1cc(-c2ccc(Cc3ccc(F)cc3)cc2)[nH]c2ccccc12 | MT-CYB (Bos taurus, UniProt P00157) | enzyme activity, inhibitor | – | – | IC50 | 0.19 µM |
| O=C(O)CCn1c(=O)oc2cc(Cl)c(Cl)cc21 | LCK (Homo sapiens, UniProt P06239) | enzyme activity, inhibitor | – | – | IC50 | > 31.6 µM |
| C=C1NC(=O)[C@H](CCSC)NC(=O)[C@H](Cc2ccc(O)cc2)NC(=O)[C@H](CC(N)=O)NC(=O)CNC(=O)CNC(=O)[C@H](CC(N)=O)NC(=O)[C@H](Cc2c[nH]cn2)NC(=O)[C@H](CCC(=O)O)NC(=O)[C@H](Cc2ccc(O)cc2)NC(=O)[C@H](CO)NC(=O)[C@H](Cc2c[nH]c3ccccc23)NC(=O)[C@H](Cc2c[nH]c3ccccc23)NC(=O)c2ccc(-c3nc(C(=O)OC)cs3)nc2-c2csc1n2 | TNIK (Homo sapiens, UniProt Q9UKE5) | enzyme activity, inhibitor, ADP detection | – | – | IC50 | 2.5 µM |
| Cc1ccc(NS(=O)(=O)c2c(C)[nH]c(C)c2C(=O)N2CCCC2)cc1 | DRD3 | Go activation, antagonist, BRET | – | added: dopamine | IC50 | > 100 µM |
| CCCCCCCCCCCCCCCCCC(=O)NC[C@H]1CC[C@H](C(=O)N[C@@H](CCC(=O)NCCCOCCOCCOCCCNC(=O)COCC(=O)N[C@@H](Cc2ccc(O)cc2)C(=O)NC(C)(Cc2ccccc2)C(=O)N[C@@H](CC(C)C)C(=O)N[C@@H](CCCC)C(=O)N[C@@H](CCCNC(=N)N)C(=O)N2CCC[C@H]2C(=O)N[C@@H](CCCNC(=N)NC)C(=O)N[C@@H](CC(N)=O)C(N)=O)C(=O)O)CC1 (stereo partly drawn) | NMUR1 (Homo sapiens, UniProt Q9HB89) | β-arrestin recruitment, antagonist, PathHunter luminescence | – | 30 min preincubation, added: 0.3 nM human NMU-25 | IC50 | 0.029 µM |
| Cc1ccc(S(=O)(=O)Oc2ccc(/C=N/NS(=O)(=O)c3ccc(Cl)cc3)cc2)cc1 | CA1 | enzyme activity, inhibitor, absorbance | – | – | IC50 | 0.016 µM |
| CC[C@H](C)[C@H](NC(=O)[C@H](CCCCN)NC(=O)[C@H](CC(C)C)NC(=O)[C@H](C)NC(=O)[C@H](C)NC(=O)[C@H](C)NC(=O)[C@H](CCCCN)NC(=O)[C@@H](NC(=O)[C@H](CCCCN)NC(=O)[C@H](CC(N)=O)NC(=O)[C@H](CCCCN)NC(=O)[C@@H](NC(=O)[C@H](C)NC(=O)[C@@H](N)Cc1ccc(O)cc1)[C@@H](C)O)C(C)C)C(=O)N[C@H](C(=O)N[C@@H](CCCNC(=N)N)C(=O)O)[C@@H](C)CC | Mapk1 | enzyme activity, inhibitor, fluorescence | – | pH 7.4 | IC50 | > 200 µM |
| Cc1cc(-c2ccc3ccccc3c2)nnc1NCCN1CCN(C)CC1 | SLC47A1 (Homo sapiens, UniProt Q96FL8) | transport, inhibitor | – | – | IC50 | 0.23 µM |
| O=C(O[C@@H]1Cc2c(O)cc(O)cc2O[C@@H]1c1cc(O)c(O)c(O)c1)c1cc(O)c(O)c(O)c1 | Fructose-bisphosphate aldolase (Candida albicans, UniProt Q9URB4) | enzyme activity, inhibitor, absorbance | – | – | IC50 | 0.561 µM |
| COc1cc(CN2CCN(C(=O)Cc3ccccc3)CC2)cc(OC)c1O | Alpha-synuclein, fibrils (SNCA, Homo sapiens, UniProt P37840) | fibril growth, conformation-specific ELISA | – | 20 h, added: 6 µM monomer | IC50 | 2 ± 2 µM |
| COc1cc(C[C@H](C)[C@H](C)Cc2ccc3c(c2)OCO3)ccc1O | Cocaine esterase (CES2, Homo sapiens, UniProt O00748) | enzyme activity, inhibitor, fluorescence | – | – | IC50 | 1.39 µM |
| CCc1ccc(S(=O)(=O)Nc2cc(F)c(C3CC3)cc2Cl)cc1S(=O)(=O)F | GTPase KRas, with RAF (KRAS, Homo sapiens, UniProt P01116) | RAF-KRAS interaction, inhibitor, NanoBRET | HEK293T | 24 h | IC50 | 37 ± 17 µM |
| Cc1[nH]c2ccccc2c1CCNC(=O)c1ccccc1F | ARP2/ARP3 (Saccharomyces cerevisiae, UniProt P32381+P47117) | actin polymerization, pyrenyl-actin | – | added: ARP2/ARP3 5 nM | IC50 | 12 µM |
| O=C1NC2(CC2)COc2ncc(F)cc2[C@H]2COCCN2c2ccn3ncc1c3n2 | – | – | Sprague-Dawley rat, female, adrenals | oral, 10 mg/kg/day, 4 weeks dosing, end of recovery | organ-to-body weight ratio | 0.024 ± 0.004% |
| COC1=C(N)C(=O)c2nc(-c3nc(C(=O)O)c(C)c(-c4ccc(OC)c(OC)c4O)c3N)ccc2C1=O | NSD2 (Homo sapiens, UniProt O96028) | enzyme activity, inhibitor, AlphaLISA | – | – | IC50 | 0.12 µM |

Excerpt of the above:
| SMILES | target or system | assay | test system | conditions | quantity | value |
| --- | --- | --- | --- | --- | --- | --- |
| CC(C)C[C@H](NC(=O)[C@@H](NC(=O)[C@H](CC(C)C)NC(=O)[C@H](CO)NC(=O)[C@@H](NC(=O)[C@H](CC(N)=O)NC(=O)[C@H](CO)NC(=O)CNC(=O)[C@H](CCCNC(=N)N)NC(=O)[C@H](CCCNC(=N)N)NC(=O)[C@H](CCC(=O)O)NC(=O)[C@H](CCC(N)=O)NC(=O)[C@H](CC(C)C)NC(=O)CNC(=O)[C@H](C)NC(=O)[C@@H](N)Cc1ccc(O)cc1)C(C)C)[C@@H](C)O)C(=O)O | Mapk1 | enzyme activity, inhibitor, fluorescence | – | pH 7.4 | IC50 | 35.1 µM |
| CC(C)C[C@H](NC(=O)[C@H](CC(=O)O)NC(=O)[C@@H](N)CC(N)=O)C(=O)N1CCC[C@H]1C(=O)N[C@@H](Cc1ccccc1)C(=O)N[C@H](CCC(=O)O)C(=O)N[C@@H](Cc1ccccc1)C(N)=O | Transcriptional regulator PlcR (Bacillus thuringiensis, UniProt A0ACM8Q0N2) | reporter gene, inhibitor, lacZ reporter | 407 Cry− | 1 h, phase, late exponential, added at | IC50 | 1.26 ± 0.174 µM |
| COC1c2cc(C(C)C)c(O)c(O)c2C23CCCC(C)(C)C2C1OC3=O (stereo not drawn) | CA1 | enzyme activity, inhibitor | – | – | IC50 | 0.00481 µM |
